{"data": "Experimental data gathered from unrelated publications", "note": "Protocols differ between the studies behind these lines. Numbers after ± are the reported error."}
{"SMILES": "O=C1NC(=S)S/C1=C\\c1c[nH]c2ccc([N+](=O)[O-])cc12", "organism": "Leishmania donovani", "test": "parasite growth, resazurin", "system": "THP-1", "setting": "24 h, intracellular, amastigote", "IC50": "> 10 µM"}
{"SMILES": "Cc1ccc(Nc2nc(-c3cc(C(=O)Nc4cccc(O)c4)no3)cs2)cc1", "organism": "Mycobacterium avium", "system": "11", "setting": "96 h", "IC50": "> 100 µM"}
{"SMILES": "CCCCCCCc1c(C)[nH]c2cc(OC)ccc2c1=O", "organism": "Plasmodium yoelii", "test": "oxygen consumption", "system": "17XL", "IC50": "0.011 µM"}
{"SMILES": "C=C1C(=O)O[C@@H]2[C@H]1CC[C@H](C)[C@@H]1CCC(=O)[C@@]21C", "organism": "human immunodeficiency virus 1", "test": "viral transcription, luciferase reporter", "system": "MT2 transfected with pNL4.3-Luc", "setting": "48 h", "IC50": "0.13 µM"}
{"SMILES": "CC(C)(C)C1=CC(=NNC(=O)c2ccccc2)C=C(C(C)(C)C)C1=O", "organism": "Toxoplasma gondii", "test": "parasite growth, fluorescence", "setting": "5 days, intracellular", "IC50": "2 µM"}
{"SMILES": "Cc1ccc(Cn2cc(/C=N/N3C(=O)CSC3=S)c3cc([N+](=O)[O-])ccc32)cc1", "organism": "Leishmania donovani", "test": "parasite growth, resazurin", "system": "THP-1", "setting": "72 h, intracellular, amastigote", "IC50": "> 10 µM"}
{"SMILES": "Cc1ccc(Nc2nc(-c3cc(C(=O)Nc4ccccc4)no3)co2)cc1", "organism": "Mycobacterium avium", "system": "11", "setting": "96 h", "IC50": "> 100 µM"}
{"SMILES": "NC(=O)c1ncn([C@@H]2O[C@H](CO)[C@@H](O)[C@H]2O)n1", "organism": "Human adenovirus E serotype 4", "test": "viral replication, plaque reduction", "system": "A549, RI-6", "setting": "5 days", "IC50": "> 40 µM"}
{"SMILES": "C[C@@H]1N[C@H](CCCCCCCCCCc2cc(CCCCCCCCCC[C@@H]3CC[C@H](O)[C@@H](C)N3)c3[n+](c2)CCC3)CC[C@H]1O", "organism": "Leishmania donovani", "test": "parasite growth, resazurin", "setting": "72 h, amastigote", "IC50": "2.08 µg/mL"}
{"SMILES": "O=C1C(O)=C([C@H]2CC[C@H](c3ccc(Cl)cc3)CC2)C(=O)c2ccccc21", "organism": "Plasmodium yoelii", "test": "oxygen consumption", "system": "17XL, infected red blood cells", "IC50": "0.005 ± 0.001 µM"}
{"SMILES": "COc1ccc(Oc2ccc(OCCSC#N)cc2)cc1", "organism": "Toxoplasma gondii", "system": "hTERT fibroblasts, RFP-expressing tachyzoites", "IC50": "3.8 µM"}
{"SMILES": "Cc1ccc(Nc2nc(-c3cc(C(=O)Nc4cccc(C)c4)no3)cs2)cc1", "organism": "Mycobacterium avium", "system": "11", "setting": "96 h", "IC50": "> 100 µM"}
{"SMILES": "CC[C@H](CO)Nc1nc(NCc2ccccc2O)c2ncn(C(C)C)c2n1", "organism": "Human adenovirus E serotype 4", "test": "viral replication, plaque reduction", "system": "A549, RI-6", "setting": "5 days", "IC50": "2.4 ± 1.3 µM"}
{"SMILES": "Cc1ccc(Nc2nc(-c3cc(C(=O)Nc4ccccc4C)no3)cs2)cc1", "organism": "Mycobacterium avium", "system": "11", "setting": "96 h", "IC50": "> 100 µM"}
{"SMILES": "O=C(Nc1ccc2[nH]c3c(C4=C[C@@]5(O)CC/C=C\\CCCCN6CC[C@@H]4[C@]4(C[C@@H]7/C=C\\CCCCN7[C@H]45)C6)nccc3c2c1)C1CCCCC1", "organism": "Mycobacterium intracellulare", "test": "microbial growth", "IC50": "1.49 µM"}
{"SMILES": "O=C(Nc1ccccn1)c1cc(-c2csc(Nc3ccccc3)n2)on1", "organism": "Mycobacterium avium", "system": "11", "setting": "96 h", "IC50": "> 100 µM"}
{"SMILES": "COc1ccc(-c2cc(=O)c3cc(OC)ccc3o2)c(OC)c1", "organism": "human immunodeficiency virus 1", "test": "viral transcription, luciferase reporter", "system": "MT2 transfected with pNL4.3-Luc", "setting": "48 h", "IC50": "0.64 µM"}
{"note": "Repeated from above:"}
{"SMILES": "O=C1NC(=S)S/C1=C\\c1c[nH]c2ccc([N+](=O)[O-])cc12", "organism": "Leishmania donovani", "test": "parasite growth, resazurin", "system": "THP-1", "setting": "24 h, intracellular, amastigote", "IC50": "> 10 µM"}
{"SMILES": "Cc1ccc(Nc2nc(-c3cc(C(=O)Nc4cccc(O)c4)no3)cs2)cc1", "organism": "Mycobacterium avium", "system": "11", "setting": "96 h", "IC50": "> 100 µM"}
{"SMILES": "CCCCCCCc1c(C)[nH]c2cc(OC)ccc2c1=O", "organism": "Plasmodium yoelii", "test": "oxygen consumption", "system": "17XL", "IC50": "0.011 µM"}
